Published values of several laboratories.
A part holds a random share of what one study measured.

Study 1
Target: Sal-like protein 4, full length isoform B (SALL4, Homo sapiens, UniProt Q9UJQ4-2, residues 1-616)
Method: universal PBM
Form: double-stranded DNA, one strand shown
Medium: in vitro
Concentration: not given
Setting: 8-mer, flanks averaged, mean of replicates
Direction: higher = stronger binding
Residues (chain): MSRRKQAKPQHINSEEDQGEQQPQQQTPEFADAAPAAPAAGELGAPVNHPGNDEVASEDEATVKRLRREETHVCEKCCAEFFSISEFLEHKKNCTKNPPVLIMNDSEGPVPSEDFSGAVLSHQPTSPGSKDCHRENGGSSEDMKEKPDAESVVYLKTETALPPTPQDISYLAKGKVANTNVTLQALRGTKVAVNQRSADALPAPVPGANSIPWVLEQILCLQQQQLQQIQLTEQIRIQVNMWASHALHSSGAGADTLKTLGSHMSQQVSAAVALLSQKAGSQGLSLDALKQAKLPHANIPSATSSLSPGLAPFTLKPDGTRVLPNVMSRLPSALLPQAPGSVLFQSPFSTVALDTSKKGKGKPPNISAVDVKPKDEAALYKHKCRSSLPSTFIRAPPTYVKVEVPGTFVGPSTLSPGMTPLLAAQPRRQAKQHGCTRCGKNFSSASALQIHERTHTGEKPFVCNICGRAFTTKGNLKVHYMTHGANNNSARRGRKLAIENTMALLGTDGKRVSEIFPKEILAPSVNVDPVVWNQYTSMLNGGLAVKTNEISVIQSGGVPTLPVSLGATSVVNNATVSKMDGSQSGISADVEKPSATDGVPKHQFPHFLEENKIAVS
Sequence | E-score
GCTGTCTA | -0.104
ATTCTCGA | 0.022
CCGGTAAG | -0.228
GCCACGTA | -0.0568
ACTTATTA | 0.394
AGCTCAAC | -0.178
AGGTCGCG | -0.218
AAGTCCTA | 0.00364
TCTGCGAA | -0.0551
CCGTCATA | 0.219
TAGTAGGA | -0.0499
TGCTCAAA | 0.0243
ATACTGGA | 0.144
GCGACTAC | -0.141
ATTGCATA | 0.236
CGTTCAGA | -0.161
ATAGAAAC | 0.262
GGCTCAAA | -0.109
CAGATGTA | 0.132
ACACTGGG | -0.121
CTTCGCTC | -0.181
AATTCGGG | -0.00341
CCGATCTA | -0.059
CCCAAGGA | -0.0894
CGGTAGCA | -0.064

Study 2
Target: RNA binding protein fox-1 homolog 2, RRM domain, GST-SBP tag (RBFOX2, Homo sapiens, UniProt O43251-10, residues 100-194)
Method: RNA Bind-n-Seq
Form: RNA
Medium: in vitro
Concentration: 365 nM
Setting: natural RNA segment, single round, ends assumed
Relative to: no-protein control
Direction: higher = stronger binding
Construct (chain): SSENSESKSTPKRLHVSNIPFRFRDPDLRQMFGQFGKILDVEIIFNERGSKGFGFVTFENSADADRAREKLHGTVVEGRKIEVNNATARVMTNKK
Sequence | RBNS enrichment (R)
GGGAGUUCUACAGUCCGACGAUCGUGACUAUAUAUAAUUGGGGAGAAGAAGGGAAGAGAGCAGCAGUAGCUUAAGCCUGUUGCUAAGAAAUUUAAUUUCUUAGCAACUUGUAAUUUAGUUAUCAAUUCAAUAUUGGAAUUCUCGGGUGCCAA | 0.805
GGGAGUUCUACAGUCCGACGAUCAACUCUGACUUGUGCCAACAAUAGGAUGACCCAAGGGAGAGGAAACCUAUCCUCCUCACCAGAAGAGCCUGUGUUUUUCUGCUGAACACCCACUGUUCCUGAGGACUCCUUGGAAUUCUCGGGUGCCAA | 0.163
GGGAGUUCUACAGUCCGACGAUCCUACAAAAAAAGUUUAUGUUUAGUUUGGUAGAGGUGUUAUGUAUAAUGCUUUGUUAAAGAACCCCCUUUCCGUGCCACUGGUGAAUAGGGAUUGAUGAAUGGGAAGAGUUUGGAAUUCUCGGGUGCCAA | 2.2
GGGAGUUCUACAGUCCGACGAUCUUUGCACUGCUCCUUUUUCUUGCCCCACCCCUCCUGAUGGGACAAAAGGGUGAAGAGCUCAAAGAACCCCGACUCCCCCCUCCCCUCCCACCUCAUUGUGUACCAUGAGGUGGAAUUCUCGGGUGCCAA | 0.297
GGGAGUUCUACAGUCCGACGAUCUGCUGCUCUGGUCCUUGUGAUAAGCCUCUCUUCGGCAUCUGAGGAGCAGCUGCAGCAAAAUCUAGGGGUGUAAGUGUAUCAGGACUUAUGUGACUUAUAUUUUGGGGAGAUGGAAUUCUCGGGUGCCAA | 0.785
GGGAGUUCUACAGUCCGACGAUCACUCAGAAGAGACCAUCCAAUCAUGAGCAAGUGACCCAGUCCCCUUUCCUCUCUGUAGAGGGAUGACUGACAGUUUUAUCAAUUCUCCUCACCAGGGUUGACUGCCUUCAUGGAAUUCUCGGGUGCCAA | 0.229
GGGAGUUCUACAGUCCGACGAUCAUCAACAAGGGAGUUUAAUUAUGUGUGAGACUGACACAAACCUUAAUGUAAUUUAGUUAGAAUGCCAGAAGGAGAACACUAUUUUCAUACCCUACUUUUUCUGUACCUAAUGGAAUUCUCGGGUGCCAA | 0.678
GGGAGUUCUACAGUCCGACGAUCGAGAUCCAUGGUGGGCAGGGCUGUUAGGUCACAGAGCUCUAGAAGCAGCUGGACUUGAACCCACAAUGGCUUGUGUAAAUUCGUAAAUUUCAUGGUUUCUAGGAAAAGCUUGGAAUUCUCGGGUGCCAA | 0.522

Study 3
Target: Histone acetyltransferase KAT6A, winged helix 1, GST fusion (KAT6A, Homo sapiens, UniProt Q92794, residues 1-85)
Method: protein binding microarray
Form: double-stranded DNA, one strand shown
Medium: in vitro
Concentration: not given
Setting: 8-mer, flanks averaged, mean of 2 arrays, mostly near background
Relative to: not given
Direction: higher = stronger binding
Construct (chain): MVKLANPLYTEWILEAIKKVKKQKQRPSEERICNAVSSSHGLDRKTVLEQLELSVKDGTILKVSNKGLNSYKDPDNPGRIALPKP
Sequence | E-score
GATACCAC | -0.0533
CAGCATAA | -0.171
CCGCTACG | 0.395
TAAACCAA | -0.112
AAACAGTT | 0.0548
ATGCCATG | -0.0327
GTAAGGTA | -0.129
GACACGGA | 0.221
AGCCTAGC | 0.0267
GTGCGTAA | 0.0281
AGATAGAC | -0.181
CGAGCCAA | -0.21
CACCACCG | 0.264
AAGACTCT | -0.222
CTGTTAGA | -0.114
GAACTCCC | 0.0506
GTGAGCAA | -0.127
GTGGATAA | -0.137
GAACGCGA | 0.0447

Study 4
Target: UBE2T UBC core domain (UniProt Q9NPD8)
Chain of UniProt Q9NPD8 (whole entry, looked up): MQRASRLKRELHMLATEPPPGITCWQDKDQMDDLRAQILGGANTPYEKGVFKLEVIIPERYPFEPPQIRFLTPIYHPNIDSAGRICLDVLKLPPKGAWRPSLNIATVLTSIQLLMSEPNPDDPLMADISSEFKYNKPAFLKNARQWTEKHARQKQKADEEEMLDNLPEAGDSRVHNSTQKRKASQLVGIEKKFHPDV
Method: yeast two-hybrid
Medium: yeast
Setting: mostly zero background
Relative to: not given
Direction: higher = stronger interaction
B1: RLIM RING domain (UniProt Q9NVW2); chain SFGENDALKTCSVCITEYTEGNKLRKLPCSHEYHVHCIDRWLSENSTCPICRRAVLASGNRE
B2: RNF187 RING domain (UniProt Q5TA31); chain ALPAGPAEAACALCQRAPREPVRADCGHRFCRACVVRFWAEEDGPFPCPECADDCWQRAVEP
B3: TRIM37 RING domain (UniProt O94972); chain SVESIAEVFRCFICMEKLRDARLCPHCSKLCCFSCIRRWLTEQRAQCPHCRAPLQLRELVN
B4: TRIM22 RING domain (UniProt Q8IYM9); chain VKVDIEKEVTCPICLELLTEPLSLDCGHSFCQACITAKIKESVIISRGESSCPVCQTRFQPGNLRP
B5: DEF8 RING domain (UniProt Q6ZN54); chain AGRLGCSLTEIHTLFAKHIKLDCERCQAKGFVCELCREGDVLFPFDSHTSVCADCSAVFHRDCYYDNSTTCPKCARLSLRK
B6: ANAPC11 RING domain (UniProt Q9NYG5); chain GICRMAFNGCCPDCKVPGDDCPLVWGQCSHCFHMHCILKWLHAQQVQQHCPMCRQEWKFKE
Molecule | lacZ reporter activity
RYRQMEERITCPICIDSHIRLVFQCGHGACAPCGSALSACPICRQPIRDRIQIF (MIB2 RING domain (UniProt Q96AX9)) | 0
YCEMGSTFQLCKICAENDKDVKIEPCGHLMCTSCLTAWQESDGQGCPFCRCEIKGTEPII (CBLB RING domain (UniProt Q13191)) | 0
B1 (RLIM RING domain) | 0
B2 (RNF187 RING domain) | 0
AEADPLGRFTCPVCLEVYEKPVQVPCGHVFCSACLQECLKPKKPVCGVCRSALAPGVRAV (RNF114 RING domain (UniProt Q9Y508)) | 0
B3 (TRIM37 RING domain) | 0
B4 (TRIM22 RING domain) | 0
PEELAVNNDDCAICWDSMQAARKLPCGHLFHNSCLRSWLEQDTSCPTCRMSLNIADNNR (AMFR RING domain (UniProt Q9UKV5)) | 8780
YPEEVDDDLICHICLQALLDPLDTPCGHTYCTLCLTNFLVEKDFCPMDRKPLVLQHCKK (LNX1 RING domain (UniProt Q8TBB1)) | 0
B5 (DEF8 RING domain) | 0
B6 (ANAPC11 RING domain) | 0

A few entries again (study 1):
Sequence | E-score
ATACTGGA | 0.144
GCGACTAC | -0.141
ATTGCATA | 0.236
CGTTCAGA | -0.161
ATAGAAAC | 0.262
GGCTCAAA | -0.109
CAGATGTA | 0.132
ACACTGGG | -0.121
